# Results of several laboratories.
# Protocols differ between the studies behind these lines. Numbers after ± are the reported error.
# Nuclear receptor subfamily 2 group C member 2 ligand-binding domain: Nuclear receptor subfamily 2 group C member 2, ligand-binding domain (Homo sapiens, UniProt P49116)
Compound,target,test,system,conditions,scale,Kd
CC(C)C[C@H](NC(=O)[C@@H](NC(=O)[C@H](CO)NC(=O)[C@H](CO)NC(=O)[C@@H](NC(=O)[C@H](CC(=O)O)NC(=O)[C@H](CC(C)C)NC(=O)[C@@H]1CCCN1C(=O)[C@H](CO)NC(=O)c1ccc2c(c1)C(=O)OC21c2ccc(N(C)C)cc2Oc2cc(N(C)C)ccc21)[C@@H](C)O)C(C)C)C(=O)N[C@@H](Cc1ccc(OP(=O)(O)O)cc1)C(=O)N[C@H](C(=O)N[C@@H](C)C(=O)N[C@H](C(=O)N[C@@H](CCC(N)=O)C(=O)N1CCC[C@H]1C(=O)N[C@@H](CC(N)=O)C(=O)N[C@@H](CCC(=O)O)C(=O)N[C@@H](CC(=O)O)C(=O)O)C(C)C)[C@@H](C)O,"Growth factor receptor-bound protein 10, SH2 domain (Homo sapiens, UniProt Q13322)",binding,,,,592 nM
CC12CCC(CC1)C(C)(C)O2,"1,8-cineole 2-endo-monooxygenase (cinA, Citrobacter braakii, UniProt Q8VQF6, N242A)",binding,,,,12600 ± 1730 nM
CSCC[C@H](NC(=O)[C@H](CC(=O)O)NC(=O)c1ccc2c(c1)C(=O)OC21c2ccc(N(C)C)cc2Oc2cc(N(C)C)ccc21)C(=O)N[C@@H](CO)C(=O)N[C@@H](CCCCN)C(=O)N[C@@H](CC(=O)O)C(=O)N[C@@H](CCC(=O)O)C(=O)N[C@@H](CO)C(=O)N[C@H](C(=O)N[C@@H](CC(=O)O)C(=O)N[C@@H](Cc1ccc(OP(=O)(O)O)cc1)C(=O)N[C@H](C(=O)N1CCC[C@H]1C(=O)N[C@@H](CCSC)C(=O)N[C@@H](CC(C)C)C(=O)N[C@@H](CC(=O)O)C(=O)N[C@@H](CCSC)C(=O)N[C@@H](CCCCN)C(=O)N[C@@H](CC(=O)O)C(=O)O)C(C)C)C(C)C,"SH2B3, SH2 domain (Homo sapiens, UniProt Q9UQQ2)",binding,,,,543 nM
NCC(O)c1ccc(O)cc1 (racemic),Nuclear receptor subfamily 2 group C member 2 ligand-binding domain,SPR imaging,,,,67.2 nM
Cc1cn([C@H]2C[C@H](O)[C@@H](COP(=O)(O)OP(=O)(O)OP(=O)(O)O)O2)c(=O)[nH]c1=O,"DNA polymerase I, Klenow fragment (polA, Escherichia coli, UniProt P00582, C907S/D424A/E710Q/L744C)","nucleotide incorporation, substrate, single-turnover rapid quench",,together with: radiolabelled primer-template DNA,,320000 ± 20000 nM
CC(C)C[C@H](NC(=O)CNC(=O)[C@H](CCC(=O)O)NC(=O)[C@H](CCC(N)=O)NC(=O)[C@H](Cc1ccccc1)NC(=O)[C@@H]1CCCN1C(=O)[C@@H](NC(=O)[C@H](C)N)[C@@H](C)O)C(=O)N[C@@H](CCCNC(=N)N)C(=O)N[C@H](C(=O)N[C@@H](Cc1ccccc1)C(=O)N[C@@H](CCCCN)C(=O)N[C@@H](CCCCN)C(=O)N[C@@H](CCCCN)C(=O)N[C@@H](CCCCNC(=O)CCCCCNC(=S)Nc1ccc2c(c1)C(=O)OC21c2ccc(O)cc2Oc2cc(O)ccc21)C(N)=O)[C@@H](C)O,"E3 ubiquitin-protein ligase XIAP, BIR1 domain (XIAP, Homo sapiens, UniProt P98170)",fluorescence polarization,,"30 min, pH 7.5, together with: 20 nM FITC-labeled peptide",,no binding
CC(C)(C)C(O)C(Oc1ccc(-c2ccccc2)cc1)n1cncn1 (stereo not shown),"Glideosome-associated protein 50 (GAP50, Plasmodium falciparum, UniProt Q8I2X3)","binding, surface plasmon resonance",,1:1 binding model,,330 nM
CC[C@H](C)[C@H](NC(=O)[C@H](CC(=O)O)NC(=O)[C@H](C)NC(=O)[C@H](Cc1ccc(OP(=O)(O)O)cc1)NC(=O)[C@H](CCCCN)NC(=O)[C@@H](NC(=O)[C@H](CC(=O)O)NC(=O)CNC(=O)[C@H](CCCCN)NC(=O)[C@H](CCSC)NC(=O)[C@H](CC(=O)O)NC(=O)[C@H](CC(C)C)NC(=O)[C@H](CCSC)NC(=O)c1ccc2c(c1)C(=O)OC21c2ccc(N(C)C)cc2Oc2cc(N(C)C)ccc21)C(C)C)C(=O)N[C@@H](CCC(=O)O)C(=O)N[C@@H](CO)C(=O)N[C@@H](CO)C(=O)N[C@@H](CC(N)=O)C(=O)N[C@@H](CC(=O)O)C(=O)O,"Growth factor receptor-bound protein 7, SH2 domain (GRB7, Homo sapiens, UniProt Q14451)",binding,,,,638 nM
CC[C@H](C)[C@@H]1NC(=O)[C@H](Cc2c[nH]c3ccccc23)NC(=O)[C@H](Cc2ccc(O)cc2)NC(=O)CSC[C@@H](C(N)=O)NC(=O)[C@H]([C@@H](C)O)NC(=O)[C@H](CO)NC(=O)[C@H](C(C)C)NC(=O)[C@H](Cc2ccc(O)cc2)NC(=O)[C@H](CCCNC(=N)N)NC(=O)[C@H](Cc2ccc(O)cc2)NC(=O)[C@H]([C@@H](C)O)NC(=O)[C@H]([C@@H](C)O)NC(=O)[C@H](Cc2c[nH]c3ccccc23)NC(=O)[C@H](CO)NC(=O)[C@H](CC(N)=O)NC(=O)[C@H](CO)NC1=O,"Retromer complex (Thermochaetoides thermophila, UniProt G0S0E6+G0S709)","binding, ITC",,"25 °C, retromer, Chaetomium thermophilum",,5030 ± 900 nM
CC[C@H](C)[C@H](NC(=O)[C@H](CC(=O)O)NC(=O)[C@@H](NC(=O)[C@H](CC(N)=O)NC(=O)[C@H](CC(=O)O)NC(=O)[C@H](CC(=O)O)NC(=O)[C@H](Cc1ccccc1)NC(=O)[C@H](CC(C)C)NC(=O)[C@@H](N)CC(N)=O)[C@@H](C)CC)C(=O)N[C@@H](Cc1ccccc1)C(=O)N[C@@H](C)C(=O)N[C@@H](CC(=O)O)C(=O)N[C@@H](CC(C)C)C(=O)N[C@H](C(=O)O)[C@@H](C)O,"SNX27, FERM domain (Homo sapiens, UniProt Q96L92)",,,pH 7.5,,38400 ± 1340 nM
CN1C(=O)CCS(=O)(=O)C1c1ccc(Cl)cc1 (stereo not shown),Nuclear receptor subfamily 2 group C member 2 ligand-binding domain,SPR imaging,,,,0.052 nM
Nc1ncnc2c1ncn2[C@@H]1O[C@H](COP(=O)(O)OP(=O)(O)OP(=O)(O)O)[C@@H](O)[C@H]1O,"matB (Rhodopseudomonas palustris, UniProt Q6ND88, C106A/K488A/Q457C/R286C)",binding,MES buffer,pH 6.5,,26000 ± 2000 nM
CC[C@@]1(O)C[C@H](O[C@H]2C[C@H](N(C)C)[C@H](O[C@H]3C[C@H](O)[C@H](O[C@H]4CCC(=O)[C@H](C)O4)[C@H](C)O3)[C@H](C)O2)c2c(cc3c(c2O)C(=O)c2c(O)cccc2C3=O)[C@H]1C(=O)OC,"Cytochrome P450 2J2 (CYP2J2, Homo sapiens, UniProt P51589)",,,"2 min, pH 7.4",,2440 ± 240 nM
Nc1nc2c(ncn2[C@@H]2O[C@H](COP(=O)(O)OP(=O)(O)OP(=O)(O)O)[C@@H](O)[C@H]2O)c(=O)[nH]1,"GTP 3',8-cyclase (moaA, Staphylococcus aureus, UniProt P69848, R266K)","binding, isothermal titration calorimetry",,"25 °C, R266K mutant, anaerobic",,1790 ± 700 nM
CC1=NN(c2cccc(Cl)c2)C(=O)/C1=C\c1cn(-c2nc(N3CCOCC3)nc(N3CCOCC3)n2)c2ccccc12,"PTGS2 (Homo sapiens, UniProt P35354)","binding, UV-vis spectroscopy, Benesi-Hildebrand",,pH 7.4,higher = stronger binding,5210 nM
C[C@H](NC(=O)[C@@H](NC(=O)[C@H](CO)NC(=O)[C@H](Cc1c[nH]cn1)NC(=O)[C@@H]1CCCN1C(=O)[C@H](CC(=O)O)NC(=O)[C@H](CCC(N)=O)NC(=O)[C@H](Cc1ccc(OP(=O)(O)O)cc1)NC(=O)[C@H](Cc1c[nH]cn1)NC(=O)[C@@H]1CCCN1C(=O)[C@H](CC(=O)O)NC(=O)[C@H](CCCNC(=N)N)NC(=O)[C@H](CO)NC(=O)[C@@H]1CCCN1C(=O)[C@H](C)NC(=O)[C@@H]1CCCN1C(=O)[C@H](CC(N)=O)NC(=O)c1ccc2c(c1)C(=O)OC21c2ccc(N(C)C)cc2Oc2cc(N(C)C)ccc21)[C@@H](C)O)C(=O)N[C@@H](CC(=O)O)C(=O)O,"SH2 domain-containing adapter protein B, SH2 domain (SHB, Homo sapiens, UniProt Q15464)",binding,,,,991 nM
CC[C@H](C)[C@H](NC(=O)[C@H](CCC(N)=O)NC(=O)[C@@H](NC(=O)[C@@H]1CCCN1C(=O)[C@@H](NC(=O)[C@H](CO)NC(=O)[C@H](Cc1ccccc1)NC(=O)[C@@H]1CCCN1C(=O)[C@H](CCC(N)=O)NC(=O)[C@@H](N)CCSC)[C@@H](C)CC)C(C)C)C(=O)N[C@H](C(=O)N[C@@H](CC(C)C)C(=O)N[C@@H](CCC(N)=O)C(=O)NCC(=O)N[C@@H](CO)C(=O)N[C@@H](CCCNC(=N)N)C(=O)N[C@@H](CCCNC(=N)N)C(=O)N[C@@H](CCCNC(=N)N)C(=O)N[C@@H](CCC(N)=O)C(=O)NCC(=O)N[C@@H](CCCNC(=N)N)C(N)=O)[C@@H](C)O,"Kcnma1 (Mus musculus, UniProt Q08460)","ion current, blocker, inside-out patch clamp",Xenopus oocytes,"+100 mV, together with: 10 µM cytosolic Ca2+",,320 nM
CSCC[C@H](NC(=O)CNC(=O)[C@H](Cc1ccccc1)NC(=O)[C@H](CC(=O)O)NC(=O)CNC(=O)c1ccc2c(c1)C(=O)OC21c2ccc(N(C)C)cc2Oc2cc(N(C)C)ccc21)C(=O)N[C@@H](CO)C(=O)N[C@@H](CCCNC(=N)N)C(=O)N[C@@H](CC(=O)O)C(=O)N[C@H](C(=O)N[C@@H](Cc1ccc(OP(=O)(O)O)cc1)C(=O)N[C@@H](CO)C(=O)N[C@H](C(=O)N[C@@H](CC(=O)O)C(=O)N[C@@H](Cc1ccc(O)cc1)C(=O)N[C@@H](Cc1ccc(O)cc1)C(=O)N[C@@H](CCCNC(=N)N)C(=O)N[C@H](C(=O)N[C@@H](CC(=O)O)C(=O)O)C(C)C)[C@@H](C)O)C(C)C,"Tyrosine-protein phosphatase non-receptor type 11, SH2 domains (PTPN11, Homo sapiens, UniProt Q06124)",binding,,,,550 nM
Fc1ccc([C@@H]2CCNC[C@H]2COc2ccc3c(c2)OCO3)cc1,"snf (Aquifex aeolicus, UniProt O67854, G24D/I359G/N21Y/S256G/T254S/Y265F)",saturation binding,,,,2410 ± 106 nM

# A few entries again:
Compound,target,test,system,conditions,scale,Kd
C[C@H](NC(=O)[C@@H](NC(=O)[C@H](CO)NC(=O)[C@H](Cc1c[nH]cn1)NC(=O)[C@@H]1CCCN1C(=O)[C@H](CC(=O)O)NC(=O)[C@H](CCC(N)=O)NC(=O)[C@H](Cc1ccc(OP(=O)(O)O)cc1)NC(=O)[C@H](Cc1c[nH]cn1)NC(=O)[C@@H]1CCCN1C(=O)[C@H](CC(=O)O)NC(=O)[C@H](CCCNC(=N)N)NC(=O)[C@H](CO)NC(=O)[C@@H]1CCCN1C(=O)[C@H](C)NC(=O)[C@@H]1CCCN1C(=O)[C@H](CC(N)=O)NC(=O)c1ccc2c(c1)C(=O)OC21c2ccc(N(C)C)cc2Oc2cc(N(C)C)ccc21)[C@@H](C)O)C(=O)N[C@@H](CC(=O)O)C(=O)O,"SH2 domain-containing adapter protein B, SH2 domain (SHB, Homo sapiens, UniProt Q15464)",binding,,,,991 nM
CN1C(=O)CCS(=O)(=O)C1c1ccc(Cl)cc1 (stereo not shown),Nuclear receptor subfamily 2 group C member 2 ligand-binding domain,SPR imaging,,,,0.052 nM
CSCC[C@H](NC(=O)[C@H](CC(=O)O)NC(=O)c1ccc2c(c1)C(=O)OC21c2ccc(N(C)C)cc2Oc2cc(N(C)C)ccc21)C(=O)N[C@@H](CO)C(=O)N[C@@H](CCCCN)C(=O)N[C@@H](CC(=O)O)C(=O)N[C@@H](CCC(=O)O)C(=O)N[C@@H](CO)C(=O)N[C@H](C(=O)N[C@@H](CC(=O)O)C(=O)N[C@@H](Cc1ccc(OP(=O)(O)O)cc1)C(=O)N[C@H](C(=O)N1CCC[C@H]1C(=O)N[C@@H](CCSC)C(=O)N[C@@H](CC(C)C)C(=O)N[C@@H](CC(=O)O)C(=O)N[C@@H](CCSC)C(=O)N[C@@H](CCCCN)C(=O)N[C@@H](CC(=O)O)C(=O)O)C(C)C)C(C)C,"SH2B3, SH2 domain (Homo sapiens, UniProt Q9UQQ2)",binding,,,,543 nM
